Results collected from several papers.
Each line is one published result; not all experiments were run side by side. Values joined by “and” are separate records of one study, mostly repeats; a detail may differ. Numbers after ± are the reported error.
ampC: Beta-lactamase (ampC, Escherichia coli K-12, UniProt P00811)
UniProt P00811, sequence (whole entry, looked up): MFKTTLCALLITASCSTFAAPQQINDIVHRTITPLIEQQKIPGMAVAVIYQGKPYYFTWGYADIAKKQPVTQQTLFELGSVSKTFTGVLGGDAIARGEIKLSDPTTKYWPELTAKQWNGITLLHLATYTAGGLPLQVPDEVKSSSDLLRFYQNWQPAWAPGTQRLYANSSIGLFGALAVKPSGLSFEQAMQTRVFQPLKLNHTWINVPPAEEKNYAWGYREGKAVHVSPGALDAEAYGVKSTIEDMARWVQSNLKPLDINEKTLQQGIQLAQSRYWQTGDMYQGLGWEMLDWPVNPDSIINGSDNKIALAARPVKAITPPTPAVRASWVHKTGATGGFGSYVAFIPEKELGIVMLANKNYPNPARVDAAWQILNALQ
ERBB2: Receptor tyrosine-protein kinase erbB-2 (ERBB2, Homo sapiens, UniProt P04626)
VASP: Vasodilator-stimulated phosphoprotein (VASP, Homo sapiens, UniProt P50552)
UniProt P50552, sequence (whole entry, looked up): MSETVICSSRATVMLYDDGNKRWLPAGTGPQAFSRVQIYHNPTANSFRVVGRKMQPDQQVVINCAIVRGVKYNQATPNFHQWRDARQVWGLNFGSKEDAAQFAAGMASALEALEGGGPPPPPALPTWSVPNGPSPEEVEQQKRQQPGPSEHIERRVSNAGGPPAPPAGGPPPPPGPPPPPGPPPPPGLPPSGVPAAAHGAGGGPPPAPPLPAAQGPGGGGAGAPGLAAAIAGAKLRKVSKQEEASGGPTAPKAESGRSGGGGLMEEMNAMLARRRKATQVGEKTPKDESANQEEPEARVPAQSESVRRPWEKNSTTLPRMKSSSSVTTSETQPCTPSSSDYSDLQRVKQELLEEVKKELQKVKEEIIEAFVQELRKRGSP
UniProt P02458, sequence (whole entry, looked up): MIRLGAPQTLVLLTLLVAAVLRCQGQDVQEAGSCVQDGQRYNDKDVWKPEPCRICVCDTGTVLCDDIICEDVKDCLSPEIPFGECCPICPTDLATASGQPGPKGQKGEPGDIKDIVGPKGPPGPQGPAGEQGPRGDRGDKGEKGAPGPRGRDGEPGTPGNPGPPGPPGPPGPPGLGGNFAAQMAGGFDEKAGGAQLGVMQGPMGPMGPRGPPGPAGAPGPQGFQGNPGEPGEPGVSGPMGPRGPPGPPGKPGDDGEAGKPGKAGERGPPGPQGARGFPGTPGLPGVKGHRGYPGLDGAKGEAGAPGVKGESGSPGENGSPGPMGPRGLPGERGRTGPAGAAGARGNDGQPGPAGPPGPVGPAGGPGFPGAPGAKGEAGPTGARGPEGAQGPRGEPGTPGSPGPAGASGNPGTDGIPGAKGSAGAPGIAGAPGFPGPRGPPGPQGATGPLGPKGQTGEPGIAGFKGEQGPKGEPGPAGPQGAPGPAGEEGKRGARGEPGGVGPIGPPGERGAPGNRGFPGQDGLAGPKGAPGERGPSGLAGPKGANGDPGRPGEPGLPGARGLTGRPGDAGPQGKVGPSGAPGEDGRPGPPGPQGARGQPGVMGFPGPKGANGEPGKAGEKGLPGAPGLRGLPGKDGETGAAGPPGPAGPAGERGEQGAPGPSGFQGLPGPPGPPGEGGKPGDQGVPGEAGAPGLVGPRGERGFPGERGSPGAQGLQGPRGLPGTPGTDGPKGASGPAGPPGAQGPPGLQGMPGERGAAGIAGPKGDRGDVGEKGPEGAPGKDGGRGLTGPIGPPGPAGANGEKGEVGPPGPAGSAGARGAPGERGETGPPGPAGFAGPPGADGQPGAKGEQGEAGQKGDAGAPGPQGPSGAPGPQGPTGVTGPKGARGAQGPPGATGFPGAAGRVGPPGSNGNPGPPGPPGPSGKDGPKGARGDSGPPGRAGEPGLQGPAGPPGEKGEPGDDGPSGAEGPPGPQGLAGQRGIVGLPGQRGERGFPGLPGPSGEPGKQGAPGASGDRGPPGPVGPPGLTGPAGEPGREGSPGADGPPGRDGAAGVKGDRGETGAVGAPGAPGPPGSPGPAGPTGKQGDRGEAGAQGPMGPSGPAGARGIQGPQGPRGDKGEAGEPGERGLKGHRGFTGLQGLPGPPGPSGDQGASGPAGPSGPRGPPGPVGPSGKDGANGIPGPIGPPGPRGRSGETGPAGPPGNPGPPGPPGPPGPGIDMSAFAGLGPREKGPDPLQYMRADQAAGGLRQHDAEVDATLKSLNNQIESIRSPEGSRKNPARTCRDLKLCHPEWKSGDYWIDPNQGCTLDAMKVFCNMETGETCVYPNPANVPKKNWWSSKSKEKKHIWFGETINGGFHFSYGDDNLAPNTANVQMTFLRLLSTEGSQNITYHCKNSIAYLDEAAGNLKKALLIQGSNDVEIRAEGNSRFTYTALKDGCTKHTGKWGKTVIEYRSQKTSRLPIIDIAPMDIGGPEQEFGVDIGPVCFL
UniProt O43639, sequence (whole entry, looked up): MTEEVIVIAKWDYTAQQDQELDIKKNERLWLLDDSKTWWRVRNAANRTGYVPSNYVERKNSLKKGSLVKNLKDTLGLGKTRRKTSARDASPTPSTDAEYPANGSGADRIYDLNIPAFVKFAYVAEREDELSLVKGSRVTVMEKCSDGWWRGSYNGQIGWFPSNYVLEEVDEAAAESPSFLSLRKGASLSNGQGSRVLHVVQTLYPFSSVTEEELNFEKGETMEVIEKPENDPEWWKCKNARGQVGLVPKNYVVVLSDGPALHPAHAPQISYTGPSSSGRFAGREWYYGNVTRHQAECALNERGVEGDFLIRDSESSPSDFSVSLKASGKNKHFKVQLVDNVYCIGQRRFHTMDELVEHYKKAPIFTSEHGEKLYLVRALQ
UniProt Q9VK33, sequence (whole entry, looked up): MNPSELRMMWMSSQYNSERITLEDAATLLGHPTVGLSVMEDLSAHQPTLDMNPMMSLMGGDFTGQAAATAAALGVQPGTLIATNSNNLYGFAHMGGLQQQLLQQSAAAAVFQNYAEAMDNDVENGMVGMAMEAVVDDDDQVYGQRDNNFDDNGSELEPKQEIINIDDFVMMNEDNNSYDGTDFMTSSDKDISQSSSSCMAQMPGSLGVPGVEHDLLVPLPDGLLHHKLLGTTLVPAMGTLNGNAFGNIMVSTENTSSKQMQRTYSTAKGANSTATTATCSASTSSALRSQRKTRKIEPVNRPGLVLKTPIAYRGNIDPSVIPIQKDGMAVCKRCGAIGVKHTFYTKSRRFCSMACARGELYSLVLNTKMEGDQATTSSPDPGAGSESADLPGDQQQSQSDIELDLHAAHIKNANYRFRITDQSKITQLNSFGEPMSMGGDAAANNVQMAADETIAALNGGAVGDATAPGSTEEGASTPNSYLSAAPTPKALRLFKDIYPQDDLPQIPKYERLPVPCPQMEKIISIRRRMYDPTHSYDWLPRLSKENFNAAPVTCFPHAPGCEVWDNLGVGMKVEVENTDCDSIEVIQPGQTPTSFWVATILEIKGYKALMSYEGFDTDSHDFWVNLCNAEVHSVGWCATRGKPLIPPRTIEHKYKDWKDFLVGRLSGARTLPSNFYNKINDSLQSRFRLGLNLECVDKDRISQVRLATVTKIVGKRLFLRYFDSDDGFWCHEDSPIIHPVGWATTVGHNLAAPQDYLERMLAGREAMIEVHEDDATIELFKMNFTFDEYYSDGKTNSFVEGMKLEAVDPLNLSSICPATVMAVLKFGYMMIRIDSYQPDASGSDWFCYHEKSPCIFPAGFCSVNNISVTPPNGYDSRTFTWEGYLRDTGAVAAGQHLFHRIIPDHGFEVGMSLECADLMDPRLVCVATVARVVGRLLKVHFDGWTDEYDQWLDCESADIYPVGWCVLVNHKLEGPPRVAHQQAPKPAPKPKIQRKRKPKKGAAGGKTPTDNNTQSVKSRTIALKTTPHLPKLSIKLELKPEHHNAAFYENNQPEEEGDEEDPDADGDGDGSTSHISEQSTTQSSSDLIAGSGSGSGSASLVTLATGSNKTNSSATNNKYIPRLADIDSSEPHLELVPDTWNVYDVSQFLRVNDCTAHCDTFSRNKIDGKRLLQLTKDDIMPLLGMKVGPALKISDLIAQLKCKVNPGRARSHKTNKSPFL
UniProt P0AC13, sequence (whole entry, looked up): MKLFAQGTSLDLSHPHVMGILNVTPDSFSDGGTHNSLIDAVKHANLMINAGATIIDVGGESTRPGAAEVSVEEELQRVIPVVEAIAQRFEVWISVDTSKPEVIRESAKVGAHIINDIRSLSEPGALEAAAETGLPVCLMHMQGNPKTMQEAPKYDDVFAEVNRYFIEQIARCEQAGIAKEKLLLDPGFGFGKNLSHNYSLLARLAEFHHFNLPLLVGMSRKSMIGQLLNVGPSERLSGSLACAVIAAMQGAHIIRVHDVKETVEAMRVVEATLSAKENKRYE
UniProt Q15835, sequence (whole entry, looked up): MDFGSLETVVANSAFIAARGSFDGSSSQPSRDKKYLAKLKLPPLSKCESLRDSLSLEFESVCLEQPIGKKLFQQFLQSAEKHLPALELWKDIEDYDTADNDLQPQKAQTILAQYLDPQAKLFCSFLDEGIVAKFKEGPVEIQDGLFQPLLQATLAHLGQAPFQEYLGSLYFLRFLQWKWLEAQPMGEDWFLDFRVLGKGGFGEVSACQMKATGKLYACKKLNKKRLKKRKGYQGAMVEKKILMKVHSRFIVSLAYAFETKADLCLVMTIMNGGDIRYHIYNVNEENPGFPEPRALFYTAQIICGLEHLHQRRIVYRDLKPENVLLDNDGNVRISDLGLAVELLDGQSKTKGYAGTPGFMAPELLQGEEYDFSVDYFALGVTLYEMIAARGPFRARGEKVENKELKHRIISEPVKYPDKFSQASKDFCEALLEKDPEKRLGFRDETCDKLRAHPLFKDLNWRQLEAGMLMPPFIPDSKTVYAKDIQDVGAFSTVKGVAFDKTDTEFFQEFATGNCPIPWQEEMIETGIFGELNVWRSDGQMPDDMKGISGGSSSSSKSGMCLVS

Compound	target or system	test	test system	setting	quantity	value
Cn1c2cccc(=O)c-2nc2ccccc21	TetR-family regulator NalD (Pseudomonas aeruginosa, UniProt Q9HY46)	binding, competitive microscale thermophoresis			Kd	36.8 µM
CC(C)C[C@H](NC(=O)[C@@H](N)CCC(N)=O)C(=O)N[C@@H](C)C(=O)N[C@H](C(=O)N[C@@H](CCCCN)C(=O)N[C@@H](C)C(=O)N[C@@H](C)C(=O)N[C@@H](CCCNC(=N)N)C(=O)N[C@@H](CCCCN(C)C)C(=O)N[C@@H](CO)C(=O)N[C@@H](C)C(=O)N1CCC[C@H]1C(=O)N[C@@H](C)C(=O)N[C@H](C(=O)NCC(=O)NCC(=O)N[C@H](C(N)=O)C(C)C)[C@@H](C)O)[C@@H](C)O	Polycomb protein Sfmbt (Sfmbt, Drosophila melanogaster, UniProt Q9VK33)	fluorescence polarization		pH 8.0	Kd	20.3 µM
Cc1ccc(OC[C@H]2CCCN2C)cc1C(=O)N[C@H](C)c1cc(-c2cnn(C)c2)nc2ccccc12	African green monkey cells			62.5 µM	viability	23.2%
CC1(O)c2ccccc2-c2ccccc2C1(C)O (stereo not shown)	ampC				Kd	1400 µM
O=C(N[C@@H]1c2ccccc2C[C@H]1N1CCCC1)c1ccc(-c2ccnc3[nH]ccc23)nc1	Rhodopsin kinase GRK1 (GRK1, Homo sapiens, UniProt Q15835)	binding, competition with immobilised ligand			Kd	0.71 µM
N=C(N)NCCC[C@H](NC(=O)CNC(=O)[C@@H](N)CCCCN)C(=O)N[C@@H](CCCNC(=N)N)C(=O)N[C@@H](CCCNC(=N)N)C(=O)N[C@@H](CCCNC(=N)N)C(=O)N[C@@H](CCCNC(=N)N)C(=O)N[C@@H](Cc1c[nH]cn1)C(=O)N[C@@H](Cc1c[nH]cn1)C(=O)N[C@@H](Cc1c[nH]cn1)C(=O)N[C@@H](Cc1c[nH]cn1)C(=O)N[C@@H](CCCNC(=N)N)C(=O)N[C@@H](CCCNC(=N)N)C(=O)N[C@@H](CCCNC(=N)N)C(=O)N[C@@H](CCCNC(=N)N)C(=O)N[C@@H](CCCNC(=N)N)C(=O)N[C@@H](Cc1c[nH]cn1)C(=O)N[C@@H](Cc1c[nH]cn1)C(=O)N[C@@H](Cc1c[nH]cn1)C(=O)N[C@@H](Cc1c[nH]cn1)C(=O)NCC(=O)O	Collagen alpha-1(II) chain (COL2A1, Homo sapiens, UniProt P02458)	binding, SPR	PBS		Kd	4.57 µM
CCC(C)C(NC(=O)Nc1ccc2c(c1)OCO2)C(=O)O (stereo not shown)	ampC				Kd	4100 µM
CC[C@H](C)[C@H](NC(=O)[C@H](CCCCNC(=O)CN(CCNC(=O)CN(CCNC(=O)CN(CCNC(=O)CN(CCNC(=O)[C@H](CCCNC(=N)N)NC(C)=O)C(=O)Cn1ccc(N)nc1=O)C(=O)Cn1cnc2c(=O)[nH]c(N)nc21)C(=O)Cn1cnc2c(=O)[nH]c(N)nc21)C(=O)Cn1ccc(N)nc1=O)NC(=O)[C@H](C)NC(=O)[C@H](CCCNC(=N)N)NC(=O)[C@H](CCCCN)NC(=O)[C@H](CCC(N)=O)NC(=O)[C@H](CCC(N)=O)NC(=O)[C@H](CC(N)=O)NC(=O)[C@@H](NC(=O)[C@H](CC(C)C)NC(=O)[C@H](CC(N)=O)NC(=O)[C@@H]1CCCN1C(=O)[C@H](CC(=O)O)NC(=O)[C@H](CC(C)C)NC(=O)[C@H](C)NC(=O)[C@H](CS)NC(=O)[C@H](CCCC(=O)NCCN(CC(=O)NCCN(CC(=O)NCCN(CC(=O)NCCN(CC(N)=O)C(=O)Cn1cnc2c(=O)[nH]c(N)nc21)C(=O)Cn1ccc(N)nc1=O)C(=O)Cn1ccc(N)nc1=O)C(=O)Cn1cnc2c(=O)[nH]c(N)nc21)NC(=O)[C@H](Cc1c[nH]c2ccccc12)NC(=O)[C@H](Cc1ccc(O)cc1)NC(=O)[C@H](CCCNC(=N)N)NC(=O)[C@H](CC(N)=O)NC(=O)[C@H](CCCNC(=N)N)NC(=O)[C@H](CC1CCCCC1)NC(=O)[C@H](CCC(=O)O)NC(=O)[C@H](CCCCN)NC(C)=O)[C@@H](C)O)C(=O)N[C@@H](CCCNC(=N)N)C(=O)N[C@@H](CO)C(=O)N[C@H](C(=O)N[C@@H](Cc1ccc(O)cc1)C(=O)N[C@@H](CCC(=O)O)C(=O)N[C@@H](CCC(=O)O)C(=O)NCC(=O)N[C@@H](CCC(=O)O)C(N)=O)[C@@H](C)CC	ERBB2	binding, SPR			Kd	0.0051 µM
CCCC[C@H](NC(=O)[C@H](CCCNC(=N)N)NC(=O)[C@H](CCCNC(=N)N)NC(=O)[C@H](CC(C)C)NC(=O)[C@H](CCC(=O)O)NC(=O)[C@H](CCCNC(=N)N)NC(=O)CNC(=O)[C@]1(C)CCCC=CCCC[C@](C)(NC(=O)[C@H](Cc2c[nH]c3ccccc23)NC(=O)COCCOCCNC(=O)CCCC[C@@H]2SC[C@@H]3NC(=O)N[C@@H]32)C(=O)N[C@@H](C)C(=O)N[C@@H](CCC(N)=O)C(=O)N[C@@H](CCCNC(=N)N)C(=O)N1)C(=O)N[C@@H](CO)C(=O)N[C@@H](CC(=O)O)C(=O)N[C@@H](CCC(=O)O)C(=O)N[C@@H](Cc1ccccc1)C(=O)N[C@H](C(=O)N[C@@H](CC(=O)O)C(=O)N[C@@H](CO)C(=O)N[C@@H](Cc1ccccc1)C(=O)N[C@@H](CCCCN)C(N)=O)C(C)C	Apoptosis regulator Bcl-2 (BCL2, Homo sapiens, UniProt P10415, G101V)	binding, biolayer interferometry		immobilised compound	Kd	0.0201 µM
CC[C@@H](C)[C@@H](NC(=O)[C@@H](CCC(N)=O)NC(=O)[C@H](NC(=O)[C@H]1CCCN1C(=O)[C@H](NC(=O)[C@@H](CO)NC(=O)[C@@H](Cc1ccccc1)NC(=O)[C@H]1CCCN1C(=O)[C@@H](CCC(N)=O)NC(=O)[C@H](N)CCSC)[C@H](C)CC)C(C)C)C(=O)N[C@@H](C(=O)N[C@H](CC(C)C)C(=O)N[C@H](CCC(N)=O)C(=O)NCC(=O)N[C@H](CO)C(=O)N[C@H](CCCNC(=N)N)C(=O)N[C@H](CCCNC(=N)N)C(=O)N[C@H](CCCNC(=N)N)C(=O)N[C@H](CCC(N)=O)C(=O)NCC(=O)N[C@H](CCCNC(=N)N)C(N)=O)[C@H](C)O	Kcnma1 (Mus musculus, UniProt Q08460)	ion current, blocker, inside-out patch clamp	Xenopus oocytes	+120 mV, with: 10 µM cytosolic Ca2+	Kd	2.7 µM
CC(C)C[C@H](NC(=O)[C@H](CCCNC(=N)N)NC(=O)[C@H](CO)NC(=O)[C@H](CC(N)=O)NC(=O)c1ccc2c(c1)C(=O)OC21c2ccc(N(C)C)cc2Oc2cc(N(C)C)ccc21)C(=O)NCC(=O)N[C@@H](CC(N)=O)C(=O)NCC(=O)N[C@H](C(=O)N[C@@H](CC(C)C)C(=O)N[C@@H](Cc1ccc(OP(=O)(O)O)cc1)C(=O)N[C@@H](C)C(=O)N[C@@H](CO)C(=O)N[C@H](C(=O)N[C@@H](CC(N)=O)C(=O)N1CCC[C@H]1C(=O)N[C@@H](CCC(=O)O)C(=O)N[C@@H](Cc1ccc(O)cc1)C(=O)N[C@@H](CC(=O)O)C(=O)O)C(C)C)C(C)C	Cytoplasmic protein NCK2, SH2 domain (NCK2, Homo sapiens, UniProt O43639)	binding			Kd	0.349 µM
CC(=O)N[C@@H](CO)C(=O)N[C@@H](Cc1ccccc1)C(=O)N[C@@H](CCC(=O)O)C(=O)N[C@@H](Cc1ccccc1Cl)C(=O)N1CCC[C@H]1C(=O)N1CCC[C@H]1C(=O)N[C@@H]1C(=O)N2[C@@H](C=C[C@H]1C)CC[C@H]2C(=O)N[C@H](C(=O)N[C@@H](CCC(=O)O)C(=O)N[C@@H](CC(=O)O)C(=O)N[C@@H](CCC(=O)O)C(=O)N[C@@H](CC(C)C)C(N)=O)[C@@H](C)O	VASP	binding, fluorescence			Kd	1.5 µM
CC[C@H](C)[C@H](NC(=O)[C@H](CCC(=O)O)NC(=O)[C@H](CCCNC(=N)N)NC(=O)[C@H](C)NC(=O)[C@H](Cc1c[nH]c2ccccc12)NC(=O)[C@H](CCC(N)=O)NC(=O)[C@H](CCC(=O)O)NC(=O)[C@H](CCC(=O)O)NC(=O)[C@H](CCC(=O)O)NC(=O)CNC(=O)[C@H](CCCNC(=N)N)NC(=O)CCCCCNC(=O)CCNC(=S)Nc1ccc2c(c1)C(=O)OC21c2ccc(O)cc2Oc2cc(O)ccc21)C(=O)NCC(=O)N[C@@H](C)C(=O)N[C@@H](CCC(N)=O)C(=O)N[C@@H](CC(C)C)C(=O)N[C@@H](CCCNC(=N)N)C(=O)N[C@@H](CCCNC(=N)N)C(=O)N[C@@H](CCSC)C(=O)N[C@@H](C)C(=O)N[C@@H](CC(=O)O)C(=O)N[C@@H](CC(=O)O)C(=O)N[C@@H](CC(C)C)C(=O)N[C@@H](CC(N)=O)C(=O)O	Apoptosis regulator Bcl-2 (BCL2, Homo sapiens, UniProt P10415)	binding, fluorescence polarization		with: fluorescein-labelled BH3 peptide	Kd	0.054 µM
Cc1ccc(OCCN(C)C)cc1C(=O)N[C@H](C)c1cc(-c2cnn(C(C)C)c2)nc2ccccc12	Vero E6			15.62 µM	viability	83% and 112%
CC[C@H](C)[C@H](NC(=O)[C@H](CCCCNC(=O)CN(CCNC(=O)CN(CCNC(=O)CN(CCNC(=O)CN(CCNC(=O)[C@H](CCCNC(=N)N)NC(C)=O)C(=O)Cn1ccc(N)nc1=O)C(=O)Cn1cnc2c(=O)[nH]c(N)nc21)C(=O)Cn1cnc2c(=O)[nH]c(N)nc21)C(=O)Cn1ccc(N)nc1=O)NC(=O)[C@H](C)NC(=O)[C@H](CCCNC(=N)N)NC(=O)[C@H](CCCCN)NC(=O)[C@H](CCC(N)=O)NC(=O)[C@H](CCC(N)=O)NC(=O)[C@H](CC(N)=O)NC(=O)[C@@H](NC(=O)[C@H](CC(C)C)NC(=O)[C@H](CC(N)=O)NC(=O)[C@@H]1CCCN1C(=O)[C@H](CC(=O)O)NC(=O)[C@H](CC(C)C)NC(=O)[C@H](C)NC(=O)[C@H](CS)NC(=O)[C@H](CCCC(=O)NCCN(CC(=O)NCCN(CC(=O)NCCN(CC(=O)NCCN(CC(=O)N[C@@H](CCCNC(=N)N)C(N)=O)C(=O)Cn1cnc2c(=O)[nH]c(N)nc21)C(=O)Cn1ccc(N)nc1=O)C(=O)Cn1ccc(N)nc1=O)C(=O)Cn1cnc2c(=O)[nH]c(N)nc21)NC(=O)[C@H](Cc1c[nH]c2ccccc12)NC(=O)[C@H](Cc1ccc(O)cc1)NC(=O)[C@H](CCCNC(=N)N)NC(=O)[C@H](CC(N)=O)NC(=O)[C@H](CCCNC(=N)N)NC(=O)[C@H](CCSC)NC(=O)[C@H](CCC(=O)O)NC(=O)[C@H](CCCCN)NC(=O)[C@H](CO)NC(=O)[C@H](Cc1ccccc1)NC(C)=O)[C@@H](C)O)C(=O)N[C@@H](CCCNC(=N)N)C(=O)N[C@@H](CO)C(=O)N[C@H](C(=O)N[C@@H](Cc1ccc(O)cc1)C(=O)N[C@@H](CCC(=O)O)C(=O)N[C@@H](CCC(=O)O)C(=O)NCC(=O)N[C@@H](CCC(=O)O)C(N)=O)[C@@H](C)CC	ERBB2	binding, SPR			Kd	0.0033 µM
O=C1NC2(CC2)COc2ncc(F)cc2[C@H]2COCCN2c2ccn3ncc1c3n2			Sprague-Dawley rat, male, heart	oral, 5 mg/kg/day, 4 weeks	organ weight	1.59 ± 0.201 g
CC(=O)N[C@@H](CO)C(=O)N[C@@H](Cc1ccccc1)C(=O)N[C@@H](CCC(=O)O)C(=O)N[C@@H](Cc1ccccc1)C(=O)N1CC[C@@H]2C=C[C@H]3CC[C@@H](C(=O)N4CC[C@@H]5C=C[C@H]6CC[C@@H](C(=O)N[C@H](C(=O)N[C@@H](CCC(=O)O)C(=O)N[C@@H](CC(=O)O)C(=O)N[C@@H](CCC(=O)O)C(=O)N[C@@H](CC(C)C)C(N)=O)[C@@H](C)O)N6C(=O)[C@H]54)N3C(=O)[C@H]21	VASP	binding, fluorescence			Kd	19 µM
Cn1nc(CCN)c(=O)c2c(=O)[nH]c(N)nc21	Dihydropteroate synthase (folP, Bacteria, UniProt P0AC13)	binding, SPR			Kd	0.0383 µM
O=C1C2CCCC(C(C(O)CO)CN1Cc1ccccn1)N2S(=O)(=Nc1ccccc1)c1cc(Cl)cc(Cl)c1 (stereo not shown)	uncharacterized protein, residues 23-253 (Pseudomonas aeruginosa, UniProt Q9HYX8)	binding, competitive fluorescence polarization		30 min, protein 40 nM, with: fluorescent tracer 1 nM	Kd	> 40 µM

Excerpt of the above:
Compound	target or system	test	test system	setting	quantity	value
CC[C@@H](C)[C@@H](NC(=O)[C@@H](CCC(N)=O)NC(=O)[C@H](NC(=O)[C@H]1CCCN1C(=O)[C@H](NC(=O)[C@@H](CO)NC(=O)[C@@H](Cc1ccccc1)NC(=O)[C@H]1CCCN1C(=O)[C@@H](CCC(N)=O)NC(=O)[C@H](N)CCSC)[C@H](C)CC)C(C)C)C(=O)N[C@@H](C(=O)N[C@H](CC(C)C)C(=O)N[C@H](CCC(N)=O)C(=O)NCC(=O)N[C@H](CO)C(=O)N[C@H](CCCNC(=N)N)C(=O)N[C@H](CCCNC(=N)N)C(=O)N[C@H](CCCNC(=N)N)C(=O)N[C@H](CCC(N)=O)C(=O)NCC(=O)N[C@H](CCCNC(=N)N)C(N)=O)[C@H](C)O	Kcnma1 (Mus musculus, UniProt Q08460)	ion current, blocker, inside-out patch clamp	Xenopus oocytes	+120 mV, with: 10 µM cytosolic Ca2+	Kd	2.7 µM
O=C1C2CCCC(C(C(O)CO)CN1Cc1ccccn1)N2S(=O)(=Nc1ccccc1)c1cc(Cl)cc(Cl)c1 (stereo not shown)	uncharacterized protein, residues 23-253 (Pseudomonas aeruginosa, UniProt Q9HYX8)	binding, competitive fluorescence polarization		30 min, protein 40 nM, with: fluorescent tracer 1 nM	Kd	> 40 µM
CCC(C)C(NC(=O)Nc1ccc2c(c1)OCO2)C(=O)O (stereo not shown)	ampC				Kd	4100 µM
